Published values gathered from unrelated publications.
Compare with care: the assays were run in different laboratories.
Target: Tyrosine-protein kinase SYK (SYK, Homo sapiens, UniProt P43405)

The inhibition of C=CC(=O)Nc1cccc(-c2cnc3[nH]cc(C(=O)NC(C)(C)C)c3n2)c1 is reported as 78% (enzyme activity, inhibitor; 0.1 µM).
Cc1cnc2nc1Nc1cccc(c1)COC/C=C/COCc1cc(ccc1OCCN1CCOCC1)N2 has a remaining binding of 83% (concentration not given; reference: DMSO control).
The inhibition of O=C(Nc1ccc(Oc2ncnc3[nH]cc(-c4ccccc4)c23)c(F)c1)c1c2n(n(-c3cc(F)ccc3F)c1=O)CCCC2 is reported as 27% (enzyme activity, inhibitor; 0.5 µM).
Cc1cccc(-c2ccc3nc(NC(=O)C4CCCCC4)nn3c2)c1 gave a remaining activity of 94% (enzyme activity, Dundee kinase panel; 10 µM).
For Cc1ccc(-c2c(/C=C(\C#N)C(=O)NC(C)C)n(CCCO)c3ncnc(N)c23)cc1, the remaining binding was 79% (cell-free assay, competition with immobilised ligand; 1 µM).
The inhibition of NC(=O)[C@@H](O)C[C@H]1CCc2sc3ncnc(O[C@H]4CC[C@H](N5CCOCC5)CC4)c3c21 is reported as 9% (enzyme activity, inhibitor; 10 µM).
CC(C)=CC1OC(C)(C)C2C=C3C(=O)C(Cl)=CC(O)C3C3C(O)C4OC4C(=O)C132 (centres unmarked) gave a remaining binding of 95% (cell-free assay, competition with immobilised ligand; 10 µM).
The remaining binding of C=CC(=O)N1CCc2ccc(-n3c(=O)ccc4cnc5ccc(-c6cnn(C)c6)cc5c43)cc21 is reported as 100% (KINOMEscan; 1 µM; reference: DMSO control).
O=C(Cc1ccc(OCc2ccccc2)cc1)NC1(C(=O)O)CCN(C(=O)c2ccc(-c3cccc(Cl)c3)cc2)CC1: “activity vs control” 59% (enzyme activity, inhibitor; 10 µM).
For Cc1ccc(C)c(-c2ccc3nc(NC(=O)C4CCCCC4)nn3c2)c1, the remaining activity was 87% (enzyme activity, Dundee kinase panel; 10 µM).
For COc1cc(-n2cc3cc(F)cc(C(N)=O)c3n2)cc(Cl)c1C1CC(O)(CCO)Cc2ccccc21 (centres unmarked), the inhibition was 2.76% (enzyme activity, inhibitor; 10 µM).
CCn1cc(C(=O)O)c(=O)c2c(N)c(F)c(NC3CCCCC3)cc21 gave an inhibition of 14.3% (kinase activity; 0.1 µM, added: ATP at Km).
c1ccc2c(Nc3cc(C4CCC4)[nH]n3)nc(Nc3ccc4nc[nH]c4c3)nc2c1 has a remaining activity of 15% (enzyme activity, inhibitor; 0.25 µM).
COc1cc(Nc2nccc(-c3cnn4nc(OC)ccc34)n2)cc(C(F)(F)F)c1 gave a remaining binding of 89% (binding, competition with immobilised ligand; 1 µM).
With COc1ccc(O)cc1-c1c[nH]c2ncc(-c3cncc(C(=O)N(C)C)c3)cc12 the inhibition was 2.65% (binding, competition with immobilised ligand; 0.2 µM).
The remaining activity of COc1c(OCCCN2CCOCC2)ccc2c1N=C(NC(=O)c1cnc(N)nc1)N1CCN=C21 is reported as 95% (kinase activity, inhibitor; 1 µM; reference: untreated control).
With Cc1cccc(O[C@H]2CCC[C@@H](C(C)CNCc3ccncc3)C2)c1 (relative stereo) the inhibition was 2% (kinase activity, kinome panel screening; 1 µM).
With Nc1nc(Nc2ccccc2)sc1C(=O)c1ccccc1 the remaining activity was 45% (enzyme activity, inhibitor; 10 µM).
With O=C=[N][Ru-4]123([n]4c5ccc(O)cc5c5c6c(c7cc(F)c[n+]1c7c54)C(=O)NC6=O)[S+]1CC[S+]2CC[S+]3CC1 (centres unmarked) the remaining activity was 114% (enzyme activity; 100 nM, human enzyme, added: 10 µM ATP; reference: untreated).
For C=CC(=O)N1CCCC(n2c(=O)c3ncccc3n(Cc3ccc(Oc4ccccc4)cc3)c2=O)C1 (centres unmarked), the remaining binding was 75% (cell-free assay, competition with immobilised ligand; 1 µM).

A few entries again:
CCn1cc(C(=O)O)c(=O)c2c(N)c(F)c(NC3CCCCC3)cc21 gave an inhibition of 14.3% (kinase activity; 0.1 µM, added: ATP at Km).
O=C(Cc1ccc(OCc2ccccc2)cc1)NC1(C(=O)O)CCN(C(=O)c2ccc(-c3cccc(Cl)c3)cc2)CC1: “activity vs control” 59% (enzyme activity, inhibitor; 10 µM).
